Experimental data collected from several papers.
Each line is one published result; not all experiments were run side by side. “And” joins repeats or separate records; there may be more than shown. ± marks the error that the study gave.
Genome polyprotein NS3 helicase domain: Genome polyprotein, NS3 helicase domain (Hepatitis C virus genotype 1b, UniProt Q9WMX2)
ESR1: Estrogen receptor (ESR1, Homo sapiens, UniProt P03372)
WD repeat-containing protein 91 WD40 domain, residues 392–747: WD repeat-containing protein 91, WD40 domain, residues 392–747 (Homo sapiens, UniProt A4D1P6)
UniProt A4D1P6, sequence (whole entry, looked up): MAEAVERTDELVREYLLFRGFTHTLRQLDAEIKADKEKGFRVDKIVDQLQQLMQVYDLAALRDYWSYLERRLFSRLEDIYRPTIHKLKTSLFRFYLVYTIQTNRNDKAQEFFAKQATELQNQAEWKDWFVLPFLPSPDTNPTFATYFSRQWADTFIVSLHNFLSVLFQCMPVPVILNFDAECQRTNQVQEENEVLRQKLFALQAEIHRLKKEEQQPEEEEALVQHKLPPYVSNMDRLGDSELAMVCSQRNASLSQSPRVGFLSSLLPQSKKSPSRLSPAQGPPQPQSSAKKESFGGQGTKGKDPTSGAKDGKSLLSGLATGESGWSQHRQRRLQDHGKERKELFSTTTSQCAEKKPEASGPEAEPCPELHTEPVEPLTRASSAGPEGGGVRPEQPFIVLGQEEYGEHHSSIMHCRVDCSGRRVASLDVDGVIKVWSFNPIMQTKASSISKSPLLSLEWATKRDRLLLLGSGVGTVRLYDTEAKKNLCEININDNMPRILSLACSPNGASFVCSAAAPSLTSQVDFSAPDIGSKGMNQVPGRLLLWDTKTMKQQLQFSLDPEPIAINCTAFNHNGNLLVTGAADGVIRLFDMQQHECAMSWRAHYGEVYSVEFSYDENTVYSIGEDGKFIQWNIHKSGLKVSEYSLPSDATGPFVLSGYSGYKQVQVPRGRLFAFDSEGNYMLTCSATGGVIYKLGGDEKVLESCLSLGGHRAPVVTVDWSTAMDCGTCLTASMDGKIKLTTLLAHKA
WD repeat-containing protein 91: WD repeat-containing protein 91 (Homo sapiens, UniProt A4D1P6)
CALM1 Ca2+-bound N-lobe: Calmodulin-1, Ca2+-bound N-lobe (CALM1, Homo sapiens, UniProt P0DP23)
UniProt Q16774, sequence (whole entry, looked up): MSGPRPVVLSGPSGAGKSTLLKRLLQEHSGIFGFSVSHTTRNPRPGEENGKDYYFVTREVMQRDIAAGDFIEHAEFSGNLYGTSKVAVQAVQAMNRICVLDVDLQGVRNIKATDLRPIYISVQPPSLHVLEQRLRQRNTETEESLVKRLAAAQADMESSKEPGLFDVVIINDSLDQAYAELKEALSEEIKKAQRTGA
UniProt O76090, sequence (whole entry, looked up): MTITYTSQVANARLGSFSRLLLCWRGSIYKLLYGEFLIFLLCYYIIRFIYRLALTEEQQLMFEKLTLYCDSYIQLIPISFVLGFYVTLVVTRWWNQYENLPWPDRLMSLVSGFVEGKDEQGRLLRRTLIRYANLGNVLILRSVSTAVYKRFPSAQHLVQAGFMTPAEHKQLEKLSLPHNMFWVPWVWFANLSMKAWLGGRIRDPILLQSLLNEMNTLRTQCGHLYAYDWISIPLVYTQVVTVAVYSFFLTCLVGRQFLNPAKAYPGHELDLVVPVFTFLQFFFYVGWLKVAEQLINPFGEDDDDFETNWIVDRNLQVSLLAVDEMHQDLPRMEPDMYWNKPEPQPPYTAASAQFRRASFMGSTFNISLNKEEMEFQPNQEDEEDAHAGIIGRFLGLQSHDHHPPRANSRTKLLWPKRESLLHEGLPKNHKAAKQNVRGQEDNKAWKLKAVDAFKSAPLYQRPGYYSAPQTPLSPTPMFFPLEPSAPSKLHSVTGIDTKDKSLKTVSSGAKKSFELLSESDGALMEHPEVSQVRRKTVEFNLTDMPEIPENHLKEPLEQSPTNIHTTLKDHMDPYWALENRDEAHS
UniProt P51575, sequence (whole entry, unmodified, looked up): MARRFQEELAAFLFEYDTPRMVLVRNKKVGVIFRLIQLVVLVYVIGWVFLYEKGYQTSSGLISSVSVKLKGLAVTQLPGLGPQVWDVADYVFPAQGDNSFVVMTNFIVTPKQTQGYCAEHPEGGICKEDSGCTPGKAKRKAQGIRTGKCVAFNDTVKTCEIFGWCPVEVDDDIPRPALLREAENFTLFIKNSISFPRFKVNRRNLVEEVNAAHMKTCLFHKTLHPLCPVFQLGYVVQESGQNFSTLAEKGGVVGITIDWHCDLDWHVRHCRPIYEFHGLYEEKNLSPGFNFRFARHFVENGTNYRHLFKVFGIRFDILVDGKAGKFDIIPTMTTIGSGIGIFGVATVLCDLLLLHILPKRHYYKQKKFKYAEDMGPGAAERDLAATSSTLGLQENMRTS
UniProt P00441, sequence (whole entry, unmodified, looked up): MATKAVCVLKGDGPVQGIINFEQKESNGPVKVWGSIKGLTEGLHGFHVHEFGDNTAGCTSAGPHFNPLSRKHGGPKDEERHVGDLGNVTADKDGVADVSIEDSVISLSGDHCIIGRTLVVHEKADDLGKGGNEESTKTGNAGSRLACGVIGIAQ

`CCCCC1(C2CCCC2)Cc2cc(OCC(=O)O)c(Cl)c(Cl)c2C1=O` (stereo in doubt) gave an inhibition of 0% (Genome polyprotein NS3 helicase domain; DNA binding, inhibitor; hepatitis C virus; 100 µM, together with: Cy5-dT15 DNA).
The Ke of `O=C(NC1CCN(c2ncnc3c2nc(-c2ccccc2Cl)n3-c2ccc(Cl)cc2)CC1)c1ccccc1F` is reported as roughly 0.6 nM (Cannabinoid receptor 1 (CNR1, Homo sapiens, UniProt P21554); antagonist, FLIPR calcium mobilisation; CHO-K1 expressing CNR1 and Gαq16; together with: CP55940).
The selectivity ratio of `Oc1ccc([C@H]2COc3cc(O)ccc3C2)cc1` is reported as 2.6 (ESR1; array formation; PRL-HeLa; baseline: EC50 ERβ over EC50 ERα).
`COC(=O)CCc1c(C)nn(-c2ccc(C(=O)N3CCC(C#N)CC3)cc2)c1C` has a binding of -15% and 1% (WD repeat-containing protein 91 WD40 domain, residues 392–747; SPR; 45 µM).
`CCC1(O)CCCN(C(=O)c2ccc(-c3ccc(F)c(NC(=O)CCl)c3)cc2)C1` (centres unmarked) gave an unmodified protein of 7% and 22% (DNA dC->dU-editing enzyme APOBEC-3B, C-terminal domain (Homo sapiens, UniProt Q9UH17); covalent modifier, intact protein mass spectrometry; 500 µM, 1 h, 20-fold molar excess).
With `COc1cc(Nc2ncc3c(n2)-c2ccc(Cl)cc2C(c2c(F)cccc2OC)=NC3)ccc1C(=O)O` the remaining activity was 78% (EPHA3; kinase activity; 1 µM).
For `Cc1nc(N=Nc2cc(S(=O)(=O)[O-])c3cc([N+](=O)[O-])cc(S(=O)(=O)[O-])c3c2)c(COP(=O)([O-])[O-])c(C=O)c1O.[Na+].[Na+].[Na+].[Na+]`, the inhibition was 58% (Genome polyprotein NS3 helicase domain; DNA binding, inhibitor; hepatitis C virus; 100 µM, together with: Cy5-dT15 DNA).
`COc1ccc(-c2cncc(C(=O)N[C@@H]3CCc4c(C#N)cccc43)c2)c(C)c1` has a binding of 80% and 78% (WD repeat-containing protein 91 WD40 domain, residues 392–747; SPR; 45 µM).
`Nc1ncnc2c1ncn2[C@@H]1O[C@H](COP(=O)(O)O)[C@@H](O)[C@H]1O` has a Km of 108 ± 16 µM (Chimera-2 enzyme (Aplysia californica); deamination, substrate, spectrophotometric; Tris-HCl buffer with NaCl).
With `CCn1c(=O)[nH]c2cc(C(=O)NC(c3ccc(F)cc3)c3cnn(C)c3)ccc2c1=O` (centres unmarked) the SPR response was 13.3 RU (WD repeat-containing protein 91; binding, SPR steady state; 1.875 µM).
For `O=C(COP(=O)(O)O)[C@@H](O)[C@H](O)[C@H](O)COP(=O)(O)O`, “thermal stability ratio” read 0.533 (14-3-3 protein sigma (SFN, Homo sapiens, UniProt P31947); thermal proteome profiling; HepG2 cell lysate; concentration not given, 57 over 37 °C, mean; baseline: compound over control).
`N#C/C(=C\c1ccc(O)c(O)c1)C(=O)NCc1ccccc1` gave an inhibition of 0% (Genome polyprotein NS3 helicase domain; DNA binding, inhibitor; hepatitis C virus; 100 µM, together with: Cy5-dT15 DNA).
`COc1cc(/C=C/C(=O)C(=Cc2cccc(O)c2)C(=O)/C=C/c2ccc(O)c(OC)c2)ccc1O` has a ΔG of -32.2 ± 1.06 kJ/mol (haemin; binding, isothermal titration calorimetry; pH 7.4, 37 °C).
For `CC(/C=C/c1cccc(Oc2ccc(F)cc2)c1)N(O)C(N)=O` (centres unmarked), the inhibition was 0% (Genome polyprotein NS3 helicase domain; DNA binding, inhibitor; hepatitis C virus; 100 µM, together with: Cy5-dT15 DNA).
`C=C1CN(S(=O)(=O)c2ccc(C)cc2)CCCN(Cc2ccccc2)CCCN(S(=O)(=O)c2ccc(C)cc2)C1` has an FLuc/RLuc ratio of 1.1 (Protein transport protein Sec61 subunit alpha isoform 1 (Homo sapiens, UniProt P61619); item: control signal peptide-FLuc reporter; HEK293; 0.0014 mM, 6 h).
With `CC(C)[N+](C)(CCOC(=O)C1c2ccccc2Oc2ccccc21)C(C)C` the inhibition was 0% (Genome polyprotein NS3 helicase domain; DNA binding, inhibitor; hepatitis C virus; 100 µM, together with: Cy5-dT15 DNA).
`COc1cc(/C=C2\CC/C(=C\c3ccc(O)c(OC)c3)C2=O)ccc1O` has a ΔG of -38.3 ± 2 kJ/mol (haemin; binding, isothermal titration calorimetry; pH 7.4, 37 °C).
`O=c1c(O[C@@H]2O[C@H](CO)[C@@H](O)[C@H](O)[C@H]2O)c(-c2ccc(O)c(O)c2)oc2cc(O)cc(O)c12` has a selectivity ratio of 0.756 (ESR1; array formation; PRL-HeLa; baseline: EC50 ERβ over EC50 ERα).
With `N#CC1CCN(C(=O)c2ccc(CNC(=O)OCc3ccccc3)cc2)CC1` the SPR response was 0.7 RU and -1.7 RU (WD repeat-containing protein 91 WD40 domain, residues 392–747; binding, SPR single-concentration screen; 45 µM).
With `O=C(NC1CCCS(=O)(=O)c2ccccc21)c1ccc2nc(O)cnc2c1` (centres unmarked) the SPR response was 13.6 RU (WD repeat-containing protein 91; binding, SPR steady state; 1.875 µM).
The activation of `CCCCCCCC(=O)c1c(O)cc(O)cc1CC(=O)OCC` is reported as 0.98 fold (Nuclear receptor subfamily 4 group A member 3, ligand-binding domain (Homo sapiens, UniProt Q92570); reporter gene, Gal4 hybrid reporter; 10 µM; baseline: vehicle).
Under “ΔG of binding”, `COc1cc(/C=C/c2ccc(O)cc2)cc(OC)c1` is recorded as -30.4 kJ/mol (O-methyltransferase (Sorghum bicolor, UniProt A0A1B6PFV1); concentration not given, together with: SAM+).
`OC[C@H]1OC(O)[C@H](O)[C@@H](O)[C@@H]1O` (some centres unmarked) gave a kcat of 54 ± 22 s⁻¹ (Hexokinase-3 (HK3, Homo sapiens, UniProt P52790); enzyme activity, coupled G6PDH; partial substrate inhibition fit, together with: ATP 20 mM).
`Nc1nc2c(ncn2[C@@H]2O[C@@H]3COP(=O)(O)O[C@H]4[C@@H](O)[C@H](n5cnc6c(=O)[nH]c(N)nc65)O[C@@H]4COP(=O)(O)O[C@H]3[C@H]2O)c(=O)[nH]1` gave a ΔS of 24.1 cal/mol/K (Cell cycle histidine kinase CckA, DHp-CA domains (Caulobacter vibrioides, UniProt Q9X688); ITC; together with: AMPPNP 5 mM).
For `CCCCN1/C(=C/C=C(Br)/C=C/C2=[N+](CCCC)c3ccc(Br)cc3C2(C)C)C(C)(C)c2cc(Br)ccc21.[I-]`, the Hill coefficient was 1.67 (Protein arginine N-methyltransferase 3 (PRMT3, Homo sapiens, UniProt O60678); inhibitor, filter binding; together with: R4 peptide substrate).
`Nc1ccc(C(=O)O)cc1` gave a current density of 115 pA/pF and 60.1 pA/pF and 139 pA/pF and 71 pA/pF and 83.8 pA/pF and 134 pA/pF and 105 pA/pF (BEST1 (Homo sapiens, UniProt O76090); whole-cell patch clamp; HEK293 transiently expressing channel; concentration not given, membrane potential 80 mV).
The inhibition of `N[C@@H](CC(=O)O)C(=O)O` is reported as 0% (Genome polyprotein NS3 helicase domain; DNA binding, inhibitor; hepatitis C virus; 100 µM, together with: Cy5-dT15 DNA).
For `CC[C@H](C)[C@H](NC(=O)[C@H](CCCCN)NC(=O)CNC(=O)[C@@H](NC(=O)[C@@H](NC(=O)[C@H](CCSC)NC(=O)[C@H](Cc1c[nH]cn1)NC(=O)CN)[C@@H](C)O)C(C)C)C(=O)N[C@@H](Cc1ccc(O)cc1)C(=O)N[C@@H](C)C(=O)N[C@@H](C)C(=O)N[C@@H](CCSC)C(=O)N[C@@H](CCSC)C(=O)N[C@H](C(=O)N[C@@H](CCSC)C(=O)N[C@@H](CCC(=O)O)C(=O)N[C@@H](Cc1ccc(O)cc1)C(=O)N[C@@H](C)C(=O)N[C@@H](CCCNC(=N)N)C(=O)N[C@@H](CCC(N)=O)C(=O)N[C@@H](CO)C(=O)N[C@@H](CCCCN)C(=O)N[C@@H](C)C(=O)N[C@@H](CCCCN)C(=O)N[C@@H](CCCCN)C(=O)N[C@@H](CC(C)C)C(=O)N[C@@H](CCC(N)=O)C(=O)N[C@@H](C)C(=O)N[C@@H](CCSC)C(=O)N[C@@H](CCCNC(=N)N)C(=O)O)[C@@H](C)CC`, the ΔH was -20.6 ± 0.879 kJ/mol (CALM1 Ca2+-bound N-lobe; binding, isothermal titration calorimetry; pH 7.4, 15 °C, N-lobe, CaV2.1 IQ domain, together with: Ca2+).
The inhibition of `CC(C)COC(=O)OCN1C(=O)CN(CCN2CC(=O)N(COC(=O)OCC(C)C)C(=O)C2)CC1=O` is reported as 1% (Genome polyprotein NS3 helicase domain; DNA binding, inhibitor; hepatitis C virus; 100 µM, together with: Cy5-dT15 DNA).
The relaxed DNA of `O=c1nc(SCc2ccc(C(F)(F)F)cc2)nc(SCc2csc3ccc(Cl)cc23)[nH]1` is reported as 0% (DNA topoisomerase 2-alpha (TOP2A, Homo sapiens, UniProt P11388); DNA relaxation; 15.6 µM, replicate 1).
`NCC(=O)O` has a product formation of -3.68 µM (N-alpha-acetyltransferase 80 (NAA80, Homo sapiens, UniProt Q93015); substrate, DTNB; 2 mM, 30 min, 37 °C, together with: acetyl-CoA 500 µM).
`CC12CC3CC(C)(C1)CC(N)(C3)C2` gave an activation of 5% (Glutamate receptor 2 (Homo sapiens, UniProt P42262); ion current, agonist, SyncroPatch patch clamp; HEK293; 3 µM).
`O=S(=O)(O)C1CCNCC1` — result for “normalised MST signal”: -0.0516 (Sodium- and chloride-dependent taurine transporter (SLC6A6, Homo sapiens, UniProt P31641, Y138A); binding, microscale thermophoresis; 244 nM, room temperature, together with: 50 nM labelled protein; higher = more binding).
With `CCc1cccc(N(C)C(N)=Nc2cccc3ccccc23)c1` the inhibition was 1% (Genome polyprotein NS3 helicase domain; DNA binding, inhibitor; hepatitis C virus; 100 µM, together with: Cy5-dT15 DNA).
With `Nc1nc2c(ncn2[C@@H]2O[C@H](COP(=O)(O)O)[C@@H](O)[C@H]2O)c(=O)[nH]1` the reaction velocity was 0.0751 µM/s and 0.0694 µM/s and 0.0664 µM/s (GUK1 (Homo sapiens, UniProt Q16774); enzyme activity, NADH-coupled; 250 µM, together with: NaCl 10 mM).
With `Cc1ccc(C(O)c2cn(-c3ccc(C(=O)N4CCC(C#N)CC4)cc3)nn2)cc1` (centres unmarked) the SPR response was -4.1 RU and -0.3 RU (WD repeat-containing protein 91 WD40 domain, residues 392–747; binding, SPR single-concentration screen; 45 µM).
`COCCC(=O)N1CCC(Oc2ccccc2)C1` (centres unmarked) gave a fold enrichment of 0.946 (WD repeat-containing protein 91; binding, affinity selection mass spectrometry; baseline: other proteins in batch).
Under “SOD1 monomer fraction”, `[O-][S+]1CCCCS1` (centres unmarked) is recorded as 99.5% (Superoxide dismutase [Cu-Zn] (SOD1, Homo sapiens, UniProt P00441, G94A); LC-MS; human whole blood; 5 µM, 1 h, 37 °C).
`Nc1ncnc2c1ncn2[C@@H]1O[C@H](COP(=O)(O)CP(=O)(O)OP(=O)(O)O)[C@@H](O)[C@H]1O` has a calcium influx of 2.23% and 0% and 3% (P2X purinoceptor 1 (P2RX1, Homo sapiens, UniProt P51575, K215A); calcium influx; 10 nM; baseline: ionomycin response).
`CC[C@H](C)[C@H](NC(=O)[C@H](C)NC(=O)[C@H](CCSC)NC(=O)[C@H](C)NC(=O)[C@H](C)NC(=O)[C@H](Cc1ccc(O)cc1)NC(=O)[C@@H](NC(=O)[C@H](CCCCN)NC(=O)CNC(=O)[C@@H](NC(=O)[C@@H](NC(=O)[C@H](CCSC)NC(=O)[C@H](Cc1c[nH]cn1)NC(=O)CN)[C@@H](C)O)C(C)C)[C@@H](C)CC)C(=O)N[C@@H](CCSC)C(=O)N[C@@H](CCC(=O)O)C(=O)N[C@@H](Cc1ccc(O)cc1)C(=O)N[C@@H](Cc1ccc(O)cc1)C(=O)N[C@@H](CCCNC(=N)N)C(=O)N[C@@H](CCC(N)=O)C(=O)N[C@@H](CO)C(=O)N[C@@H](CCCCN)C(=O)N[C@@H](C)C(=O)N[C@@H](CCCCN)C(=O)N[C@@H](CCCCN)C(=O)N[C@@H](CC(C)C)C(=O)N[C@@H](CCC(N)=O)C(=O)N[C@@H](C)C(=O)N[C@@H](CCSC)C(=O)N[C@@H](CCCNC(=N)N)C(=O)O` has a ΔS of 19.4 ± 0.4 cal/mol/K (CALM1 Ca2+-bound N-lobe; binding, isothermal titration calorimetry; pH 7.4, 15 °C, N-lobe, CaV2.1 IQ domain, together with: Ca2+).
For `O=O`, the Km was 758 ± 250 µM (Hypoxia-inducible factor 1-alpha inhibitor (HIF1AN, Homo sapiens, UniProt Q9NWT6, Q147A); substrate, MALDI-TOF MS; pH 7.00, 37.0 °C, mutant Q147A, together with: CTAD peptide 80 µM, 2-oxoglutarate 100 µM).
